{"data": "Results from different studies", "note": "Values joined by “and” are separate records of one study, mostly repeats; a detail may differ. Numbers after ± are the reported error."}
{"Compound": "CCCCCc1ccc(S(=O)(=O)N2CC2C(=O)OC)cc1 (stereo not drawn)", "test system": "mouse, Lewis lung carcinoma", "conditions": "intraperitoneal, 15 mg/kg, 16 doses, day 11", "measurement": "tumour growth inhibition", "value": "54%"}
{"Compound": "COc1cccc(OCCN2CCC[C@H](CN3CCc4cc(OC)c(OC)cc4CC3=O)C2)c1", "test system": "C57BL/6J mouse, female, chronic social defeat stress", "conditions": "intraperitoneal, 5 mg/kg, 14 d post-dose", "how to read": "reference: before dosing", "measurement": "time in centre, open field", "value": "no effect"}
{"Compound": "COC1CN([C@H]2CC[C@H]([C@@]3(C)Oc4c(Cl)cc(C(=O)NCc5c(SC)cc(C)[nH]c5=O)c(C)c4O3)CC2)C1", "assay": "RNA-seq, refers to: TIMP3", "test system": "human, whole blood", "conditions": "dose not given, 24 h", "how to read": "reference: pretreatment baseline", "measurement": "log2 fold change", "value": 3.2}
{"Compound": "COc1cc2c(NC3CCN(C(C)C)CC3)cc(N3CCOCC3)nc2cc1OCCCN1CCCC1", "assay": "TMT proteomics, refers to: TPI1", "test system": "5xFAD mice, hippocampus", "conditions": "dose not given", "how to read": "reference: wild-type mice", "measurement": "log2 fold change", "value": 0.00377}
{"Compound": "COc1cnc2cccc(N3CCc4c(cc(Cn5ccnc5)cc4-c4cn(C)nc4C(F)(F)F)C3=O)c2c1", "test system": "BALB/c nude mice, MV4-11 xenograft", "conditions": "intraperitoneal, 50 mg/kg, day 17", "measurement": "tumour volume", "value": "178 mm3 and 151 mm3 and 129 mm3 and 169 mm3"}
{"Compound": "COc1ccc2cc3[n+](cc2c1OCCCOC(=O)c1cscn1)CCc1cc2c(cc1-3)OCO2", "test system": "C57BL/6 mice, high-fat diet", "conditions": "oral gavage, 20 mg/kg daily, 14 weeks", "how to read": "reference: HFD control", "measurement": "plasma LDL-C reduction", "value": "43.5%"}
{"Compound": "CC(C)OC(=O)[C@H](CO)NCc1cc(Cl)c(OCc2cccc(-c3ccccc3)c2Br)cc1OCc1cccnc1", "test system": "hPD-L1 MC-38 tumour, humanised hPD-1 C57BL/6 mouse", "conditions": "oral, 2.5 mg/kg × 21, day 20", "how to read": "reference: vehicle", "measurement": "tumour volume T/C", "value": "56%"}
{"Compound": "COc1cc(O)ccc1CCC(c1ccc(O)cc1)c1cc2c(c(C)c1O)OC(c1ccc(O)cc1)CC2 (mixture of isomers)", "test system": "human blood", "conditions": "1 µM, with: A23187", "measurement": "EPA level", "value": "68000 ± 12100 pg/mL"}
{"Compound": "CC(CCC(=O)NCc1ccc(C(=O)NO)cc1)C1CCC2C3C(O)CC4CC(O)CCC4(C)C3CCC12C (stereo not drawn)", "assay": "refers to: GCA", "test system": "PCK rat (Pkhd1 mutant), liver", "conditions": "oral gavage, dose not given, 5 months", "how to read": "reference: total bile acids", "measurement": "relative abundance", "value": "16.9%"}
{"Compound": "C[C@H](NC(=O)COC(=O)[C@H](C)NC(=O)CO)C(=O)O", "test system": "water", "conditions": "pH 2, 37 °C", "measurement": "backbone scission rate constant", "value": "0.0013 h⁻¹"}
{"Compound": "CC(=O)N1c2ccc(-c3ccc(CNC(=O)c4cn5cc(-c6cnc(N)nc6)nc(N6CCOCC6)c5n4)cc3)cc2CC[C@@H]1C", "test system": "Eµ-Myc lymphoma cells, mouse, Eµ-Myc lymphoma transplant", "conditions": "45 mg/kg/day, beyond day 100", "measurement": "lymphoma-free mice", "value": "90%"}
{"Compound": "CN1CCC[C@]1(C)/C=C/S(=O)(=O)NC(=O)Nc1c2c(cc3c1CCC3)CCC2", "test system": "human, whole blood ex vivo", "conditions": "400 mg single dose, 24 h, single ascending dose, with: LPS and ATP", "measurement": "IL-18 inhibition", "value": "75.3%"}
{"Compound": "C#CC(C)(C)C(=O)SCCOP1(=O)OCC2OC(n3cnc4c(N)ncnc43)CC2OP(=O)(OCCSC(=O)C(C)(C)C#C)OCC2OC(n3cnc4c(N)ncnc43)CC2O1 (stereo not drawn)", "test system": "mouse B16-F10 melanoma", "conditions": "intratumoral, 1 mg/kg, three doses at 3-day intervals", "measurement": "complete response rate", "value": "50%"}
{"Compound": "O=C([O-])c1cccc(CN2Cc3cccc(n3)CN(Cc3cccc(C(=O)O)n3)Cc3cccc(n3)C2)n1.[Mn+2].[O-][Cl+3]([O-])([O-])[O-]", "test system": "HEPES buffer with NaCl", "conditions": "33 °C, 1.4 T", "measurement": "r1 relaxivity", "value": "3.6 mM⁻¹ s⁻¹"}
{"Compound": "CC(C)C[C@H](NC(=O)CNC(=O)[C@H](CCC(N)=O)NC(=O)[C@H](CC(C)C)NC(=O)[C@H](CC(C)C)NC(=O)[C@H](CCCNC(=N)N)NC(=O)[C@H](CCC(N)=O)NC(=O)[C@H](CC(C)C)NC(=O)[C@H](CCCNC(=N)N)NC(=O)[C@H](C)NC(=O)CNC(=O)[C@H](CCC(=O)O)NC(=O)[C@H](CCCNC(=N)N)NC(=O)[C@H](CC(C)C)NC(=O)[C@H](CCCNC(=N)N)NC(=O)[C@H](CO)NC(=O)[C@H](CC(C)C)NC(=O)[C@H](CCC(=O)O)NC(=O)[C@H](CO)NC(=O)[C@@H](NC(=O)[C@H](Cc1ccccc1)NC(=O)[C@@H](NC(=O)CNC(=O)[C@H](CC(=O)O)NC(=O)C(C)(C)NC(=O)[C@@H](N)Cc1c[nH]cn1)[C@@H](C)O)[C@@H](C)O)C(=O)N[C@@H](CC(C)C)C(=O)N[C@@H](CCC(N)=O)C(=O)NCC(=O)N[C@@H](CC(C)C)C(=O)N[C@H](C(=O)NCC(=O)N[C@@H](CCCCNC(=O)COCCOCCNC(=O)COCCOCCNC(=O)CC[C@H](NC(=O)CCCCCCCCCCCCCCCCC(=O)O)C(=O)O)C(N)=O)C(C)C", "test system": "DIO C57BL/6J mice", "conditions": "sc, 300 nmol/kg twice daily, end of 8 days", "measurement": "plasma glycerol", "value": "no effect"}
{"Compound": "COc1ccc(C(=O)CCc2cc(C(CCc3ccc(O)cc3OC)c3ccc(O)cc3)c(O)cc2OC)cc1 (racemic)", "test system": "human blood", "conditions": "0.3 µM, with: A23187", "measurement": "EPA level", "value": "63000 ± 14200 pg/mL"}
{"Compound": "CCC(CC)n1c(Cc2cccs2)nc2cc(C(=O)NC(CC(=O)O)CC(C)C)ccc21 (stereo not drawn)", "assay": "refers to: systolic, diastolic pressure", "test system": "mouse", "conditions": "dose not given, 2 wk", "measurement": "blood pressure", "value": "decreased"}
{"Compound": "N=C(N)NCCC[C@@H]1NC(=O)[C@H](CCCNC(=N)N)NC(=O)[C@@H](CCCNC(=N)N)NC(=O)[C@@H](CCCNC(=N)N)NC(=O)[C@@H](C(c2ccccc2)c2ccccc2)NC(=O)[C@H](Cc2c[nH]c3ccccc23)NC(=O)[C@@H](C(c2ccccc2)c2ccccc2)NC1=O", "test system": "bacterial membrane liposomes", "conditions": "5 µg/mL, 50 min", "measurement": "calcein leakage", "value": "38%"}
{"Compound": "CC(=O)[O-].O.O.O.O.[Co+2].[O-]c1ccc(Br)cc1C=NCCN1CCOCC1", "assay": "DPPH radical scavenging", "conditions": "40 µM", "measurement": "inhibition", "value": "15.3%"}
{"Compound": "O=[N][Fe]1([N]=O)[S](CCO)[Fe]([N]=O)([N]=O)[S]1CCO", "test system": "aged C57BL/6JNarl mice on Western diet", "conditions": "po, 2.65 mg/kg daily, 16 weeks", "measurement": "plasma glucose", "value": "153 ± 45.8 mg/dL"}
{"Compound": "COc1ccc2c(c1)CN(C(=O)CCN1CCC(Cc3ccccc3)CC1)CCS2", "test system": "patients with paroxysmal atrial fibrillation", "conditions": "oral, 540 mg, converted patients of 6", "measurement": "mean time to conversion to sinus rhythm", "value": "86.7 ± 8.4 min"}
{"note": "Some of these lines once more:"}
{"Compound": "COc1ccc2c(c1)CN(C(=O)CCN1CCC(Cc3ccccc3)CC1)CCS2", "test system": "patients with paroxysmal atrial fibrillation", "conditions": "oral, 540 mg, converted patients of 6", "measurement": "mean time to conversion to sinus rhythm", "value": "86.7 ± 8.4 min"}
{"Compound": "C#CC(C)(C)C(=O)SCCOP1(=O)OCC2OC(n3cnc4c(N)ncnc43)CC2OP(=O)(OCCSC(=O)C(C)(C)C#C)OCC2OC(n3cnc4c(N)ncnc43)CC2O1 (stereo not drawn)", "test system": "mouse B16-F10 melanoma", "conditions": "intratumoral, 1 mg/kg, three doses at 3-day intervals", "measurement": "complete response rate", "value": "50%"}
